# Results gathered from unrelated publications.
# Each line is one published result; not all experiments were run side by side. Several values in a cell are separate wells, animals, samples, runs or records. Numbers after ± are the reported error.
# CGAS catalytic domain; with DNA: Cyclic GMP-AMP synthase, catalytic domain; with DNA (CGAS, Homo sapiens, UniProt Q8N884)
# UniProt Q8N884, sequence (whole entry, looked up): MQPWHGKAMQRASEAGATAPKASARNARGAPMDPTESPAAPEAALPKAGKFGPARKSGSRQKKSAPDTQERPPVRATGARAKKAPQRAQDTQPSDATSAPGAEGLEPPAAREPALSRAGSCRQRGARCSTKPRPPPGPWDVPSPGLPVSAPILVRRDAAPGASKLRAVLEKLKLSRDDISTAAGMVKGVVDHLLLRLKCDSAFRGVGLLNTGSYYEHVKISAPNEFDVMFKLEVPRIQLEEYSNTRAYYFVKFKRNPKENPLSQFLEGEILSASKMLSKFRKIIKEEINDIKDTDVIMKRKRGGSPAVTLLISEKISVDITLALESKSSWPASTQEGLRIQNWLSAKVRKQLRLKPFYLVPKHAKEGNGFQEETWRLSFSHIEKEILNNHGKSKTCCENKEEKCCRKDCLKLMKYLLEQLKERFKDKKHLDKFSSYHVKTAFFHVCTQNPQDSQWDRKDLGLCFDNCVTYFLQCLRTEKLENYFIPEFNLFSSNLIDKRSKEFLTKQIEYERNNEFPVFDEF
# HTR3A: 5-hydroxytryptamine receptor 3A (HTR3A, Homo sapiens, UniProt P46098)
# UniProt P46098, sequence (whole entry, looked up): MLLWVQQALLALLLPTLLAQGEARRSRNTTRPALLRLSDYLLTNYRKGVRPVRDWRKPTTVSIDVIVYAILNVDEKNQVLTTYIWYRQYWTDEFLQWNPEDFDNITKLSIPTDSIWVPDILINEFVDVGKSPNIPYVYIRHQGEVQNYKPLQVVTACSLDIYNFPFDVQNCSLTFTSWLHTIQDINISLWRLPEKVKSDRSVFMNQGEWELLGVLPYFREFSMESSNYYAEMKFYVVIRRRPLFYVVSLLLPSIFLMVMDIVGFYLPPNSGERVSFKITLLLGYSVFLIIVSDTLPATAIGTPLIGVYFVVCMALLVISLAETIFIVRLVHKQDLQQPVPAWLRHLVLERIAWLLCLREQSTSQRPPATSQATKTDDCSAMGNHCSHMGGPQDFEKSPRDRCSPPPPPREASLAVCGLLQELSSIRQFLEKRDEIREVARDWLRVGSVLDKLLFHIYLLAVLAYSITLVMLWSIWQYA
# ADRB3: Beta-3 adrenergic receptor (ADRB3, Homo sapiens, UniProt P13945)
# UniProt P13945, sequence (whole entry, looked up): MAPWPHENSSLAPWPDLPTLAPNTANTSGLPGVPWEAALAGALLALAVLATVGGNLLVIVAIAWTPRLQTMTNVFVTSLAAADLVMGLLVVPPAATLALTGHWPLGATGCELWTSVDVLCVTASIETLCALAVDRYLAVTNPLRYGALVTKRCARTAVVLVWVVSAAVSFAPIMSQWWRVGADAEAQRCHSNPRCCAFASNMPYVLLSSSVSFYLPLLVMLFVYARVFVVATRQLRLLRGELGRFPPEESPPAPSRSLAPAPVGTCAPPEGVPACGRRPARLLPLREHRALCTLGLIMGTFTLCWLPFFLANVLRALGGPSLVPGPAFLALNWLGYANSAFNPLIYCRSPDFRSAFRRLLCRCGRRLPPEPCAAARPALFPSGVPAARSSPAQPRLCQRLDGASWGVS
# UniProt P42338, sequence (whole entry, looked up): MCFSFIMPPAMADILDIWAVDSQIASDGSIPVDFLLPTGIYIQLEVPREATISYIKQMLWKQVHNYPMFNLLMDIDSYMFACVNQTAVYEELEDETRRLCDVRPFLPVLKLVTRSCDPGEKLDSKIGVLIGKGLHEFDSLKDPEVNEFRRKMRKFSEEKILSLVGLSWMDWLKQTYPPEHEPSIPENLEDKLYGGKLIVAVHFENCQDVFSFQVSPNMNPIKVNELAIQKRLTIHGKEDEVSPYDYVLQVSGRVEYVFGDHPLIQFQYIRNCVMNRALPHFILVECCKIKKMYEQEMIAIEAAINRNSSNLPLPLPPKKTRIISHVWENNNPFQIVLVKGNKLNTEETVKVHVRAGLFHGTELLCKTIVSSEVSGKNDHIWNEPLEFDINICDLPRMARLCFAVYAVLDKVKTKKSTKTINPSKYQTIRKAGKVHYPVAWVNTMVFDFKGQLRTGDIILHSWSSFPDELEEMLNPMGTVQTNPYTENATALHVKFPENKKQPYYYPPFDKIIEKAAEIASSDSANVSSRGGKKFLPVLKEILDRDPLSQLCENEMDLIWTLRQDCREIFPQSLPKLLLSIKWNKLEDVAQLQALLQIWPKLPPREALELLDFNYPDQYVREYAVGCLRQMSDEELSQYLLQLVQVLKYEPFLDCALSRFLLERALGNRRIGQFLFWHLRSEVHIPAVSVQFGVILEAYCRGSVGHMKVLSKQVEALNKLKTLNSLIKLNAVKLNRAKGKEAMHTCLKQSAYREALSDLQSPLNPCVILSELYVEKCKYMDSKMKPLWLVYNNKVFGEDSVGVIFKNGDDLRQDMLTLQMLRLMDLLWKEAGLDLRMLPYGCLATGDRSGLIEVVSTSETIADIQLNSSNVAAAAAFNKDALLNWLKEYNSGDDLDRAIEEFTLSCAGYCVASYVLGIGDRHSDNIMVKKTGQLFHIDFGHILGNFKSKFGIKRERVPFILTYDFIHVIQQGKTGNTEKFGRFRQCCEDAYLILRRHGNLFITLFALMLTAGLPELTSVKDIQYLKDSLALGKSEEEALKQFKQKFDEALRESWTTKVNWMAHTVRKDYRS
# UniProt Q9HBW0, sequence (whole entry, looked up): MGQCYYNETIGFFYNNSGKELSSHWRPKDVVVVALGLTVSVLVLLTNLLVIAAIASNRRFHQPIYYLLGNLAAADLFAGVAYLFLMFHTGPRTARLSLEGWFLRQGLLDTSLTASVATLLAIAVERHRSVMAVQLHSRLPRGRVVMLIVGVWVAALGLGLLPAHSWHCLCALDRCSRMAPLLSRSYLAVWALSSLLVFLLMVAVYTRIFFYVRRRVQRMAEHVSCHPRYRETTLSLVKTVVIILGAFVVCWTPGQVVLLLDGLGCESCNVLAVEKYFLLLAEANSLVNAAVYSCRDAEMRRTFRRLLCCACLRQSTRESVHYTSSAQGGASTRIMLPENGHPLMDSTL
# UniProt P52564, sequence (whole entry, looked up): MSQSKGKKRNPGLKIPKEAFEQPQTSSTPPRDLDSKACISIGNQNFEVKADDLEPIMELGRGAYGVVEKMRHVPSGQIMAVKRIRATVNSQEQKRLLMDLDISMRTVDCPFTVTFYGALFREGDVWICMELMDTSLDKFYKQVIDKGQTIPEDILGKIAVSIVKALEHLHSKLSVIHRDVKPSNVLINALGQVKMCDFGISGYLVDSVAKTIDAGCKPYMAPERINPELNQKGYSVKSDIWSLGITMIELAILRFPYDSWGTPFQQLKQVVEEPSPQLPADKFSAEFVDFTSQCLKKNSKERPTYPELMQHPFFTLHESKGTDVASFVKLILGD
# UniProt Q08499, sequence (whole entry, looked up): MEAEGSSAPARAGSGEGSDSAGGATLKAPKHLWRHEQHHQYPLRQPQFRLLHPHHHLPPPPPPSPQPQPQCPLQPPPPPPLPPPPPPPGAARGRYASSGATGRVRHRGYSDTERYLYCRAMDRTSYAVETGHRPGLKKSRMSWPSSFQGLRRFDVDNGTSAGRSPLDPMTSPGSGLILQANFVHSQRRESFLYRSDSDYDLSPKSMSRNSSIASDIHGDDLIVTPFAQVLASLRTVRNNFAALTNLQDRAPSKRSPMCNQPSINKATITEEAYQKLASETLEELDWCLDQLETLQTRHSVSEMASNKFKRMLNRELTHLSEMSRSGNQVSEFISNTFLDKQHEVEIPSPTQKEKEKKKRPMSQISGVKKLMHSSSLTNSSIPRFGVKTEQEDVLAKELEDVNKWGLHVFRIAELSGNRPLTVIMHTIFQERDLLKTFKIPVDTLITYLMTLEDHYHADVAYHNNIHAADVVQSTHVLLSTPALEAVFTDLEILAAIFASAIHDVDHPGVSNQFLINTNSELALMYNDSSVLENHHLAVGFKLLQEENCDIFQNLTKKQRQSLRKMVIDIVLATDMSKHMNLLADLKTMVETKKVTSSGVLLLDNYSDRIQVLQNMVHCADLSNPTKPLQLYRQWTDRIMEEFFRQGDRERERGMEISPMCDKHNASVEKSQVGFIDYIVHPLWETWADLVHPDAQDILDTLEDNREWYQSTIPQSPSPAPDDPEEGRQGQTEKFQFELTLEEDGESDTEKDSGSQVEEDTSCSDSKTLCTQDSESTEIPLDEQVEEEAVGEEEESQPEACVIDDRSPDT
# UniProt Q8TBX8, sequence (whole entry, looked up): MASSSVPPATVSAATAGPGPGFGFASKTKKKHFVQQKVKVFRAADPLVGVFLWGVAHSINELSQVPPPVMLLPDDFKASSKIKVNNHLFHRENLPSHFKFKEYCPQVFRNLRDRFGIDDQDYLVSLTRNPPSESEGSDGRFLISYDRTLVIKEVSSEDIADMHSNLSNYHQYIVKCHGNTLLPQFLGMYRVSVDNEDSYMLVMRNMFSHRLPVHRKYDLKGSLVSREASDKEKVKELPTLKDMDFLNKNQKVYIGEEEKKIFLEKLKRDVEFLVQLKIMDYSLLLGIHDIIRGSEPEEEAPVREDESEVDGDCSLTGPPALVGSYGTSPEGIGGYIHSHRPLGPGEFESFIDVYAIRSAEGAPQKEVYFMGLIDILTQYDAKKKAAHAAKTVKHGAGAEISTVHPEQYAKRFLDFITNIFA
# UniProt O75751, sequence (whole entry, looked up): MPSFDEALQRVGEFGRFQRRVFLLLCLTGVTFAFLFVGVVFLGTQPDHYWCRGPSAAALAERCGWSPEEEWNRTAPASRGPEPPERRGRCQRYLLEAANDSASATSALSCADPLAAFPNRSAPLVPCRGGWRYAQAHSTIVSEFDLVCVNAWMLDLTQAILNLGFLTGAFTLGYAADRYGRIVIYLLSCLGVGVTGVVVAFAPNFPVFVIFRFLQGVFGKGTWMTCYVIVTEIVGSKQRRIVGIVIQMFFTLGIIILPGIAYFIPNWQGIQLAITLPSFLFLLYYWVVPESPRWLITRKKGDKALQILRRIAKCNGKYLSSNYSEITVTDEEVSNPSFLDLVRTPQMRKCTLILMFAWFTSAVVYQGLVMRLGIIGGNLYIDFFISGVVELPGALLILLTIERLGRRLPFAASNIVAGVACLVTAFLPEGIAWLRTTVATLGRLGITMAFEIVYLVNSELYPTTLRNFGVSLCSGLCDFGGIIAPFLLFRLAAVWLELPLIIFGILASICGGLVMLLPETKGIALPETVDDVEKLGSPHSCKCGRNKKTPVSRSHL
SMILES,target or system,test,test system,conditions,scale,endpoint,value
COCCC(=O)Nc1ccc([C@H]2[C@@H](F)[C@@H](F)C[C@@H](F)[C@H]2F)cc1,,liver microsome stability,mouse liver microsomes,1 µM,,hepatic clearance,35 mL/min/kg
O=C(CSc1nc2nccnc2c(=O)n1CCc1ccccc1)Nc1nccs1,"Phosphatidylinositol 4,5-bisphosphate 3-kinase catalytic subunit beta isoform, with p85 alpha (PIK3CB, Homo sapiens, UniProt P42338)","kinase activity, inhibitor",,"10 µM, with: PIK3R1 complex",,inhibition,8%
Cc1nn(-c2nc3ccccc3[nH]2)c(O)c1C(c1ccccn1)c1c(C)nn(-c2nc3ccccc3[nH]2)c1O,CGAS catalytic domain; with DNA,"liquid-liquid phase separation, inhibitor",,6.25 µM,,inhibition,44.8%
C#Cc1cc(-c2cc(Nc3nc(N[C@@H](C)c4ccc(F)cn4)ncc3Cl)n[nH]2)ccc1C=O,"NTRK1 (Homo sapiens, UniProt P04629)","enzyme activity, inhibitor",,0.2 µM,,inhibition,100%
CN(C)CCC(=O)Nc1ccc(C2CCCCC2)cc1,,hepatocyte stability,cryopreserved human hepatocytes,1 µM,,hepatic clearance,14 mL/min/kg
CN1CCN(c2cc(-c3ccncc3)c(-c3ccc4ccccc4c3)nn2)CC1,"LPAR2 (Homo sapiens, UniProt Q9HBW0)","antagonist, FLIPR",,10 µM,,inhibition,39.9%
OO,"Histone acetyltransferase GCN5, with Ada2 and Ada3 (Saccharomyces cerevisiae S288c, UniProt Q03330)","enzyme activity, inhibitor",,"62.5 µM, Gcn5-Ada2-Ada3 complex, 1 mM DTT, with: [3H]acetyl-CoA",,inhibition,17 ± 10%
Cc1ccnc(OC[C@H]2CN(CC(=O)N3CCc4ccccc43)CCO2)c1,HTR3A,radioligand binding,,"concentration not given, with: [3H]GR65630",,inhibition,-10.9%
O=C(NO)c1ccc(CN2CCCCc3ccccc32)c(F)c1,ADRB3,"radioligand binding, radioligand displacement",,"10 µM, mean of replicates",,inhibition,5.33%
O=C(CN1CCO[C@@H](COc2ccccn2)C1)N1CCc2ccccc21,HTR3A,radioligand binding,,"concentration not given, with: [3H]GR65630",,inhibition,-7%
CNc1ccc(-c2nc3ccc(O)cc3s2)cc1,"Amyloid-beta precursor protein, amyloid-beta (APP, Homo sapiens, UniProt P05067)","binding, competition binding",amyloid-beta aggregates,"2000 nM, with: tritiated amyloid ligand",,inhibition,88.4% and 82%
Cc1nn(-c2nc3ccccc3s2)c(O)c1C(c1ccccc1C(=O)O)c1c(C)nn(-c2nc3ccccc3s2)c1O,CGAS catalytic domain; with DNA,"cGAS phase separation, inhibitor",,20 µM,,inhibition,120%
CC(C)C[C@H](NC(=O)C[C@H](O)[C@H](CC(C)C)NC(=O)[C@H](Cc1c[nH]cn1)NC(=O)CNC(=O)[C@@H](NC(=O)[C@H](C)NC(=O)[C@H](Cc1c[nH]c2ccccc12)NC(=O)[C@H](CCC(N)=O)NC(=O)[C@@H](Cc1ccccc1)NC(=O)COCCOCCNC(=O)CCC(C(=O)O)N1CCN(CC(=O)O)CCN(CC(=O)O)CCN(CC(=O)O)CC1)C(C)C)C(N)=O (stereo partly shown) [lutetium-177 labelled],,,"BALB/c nu/nu mice, female, liver","50 pmol, 1 h, with: PA 300 µg",,tissue uptake,0.5 ± 0.1 %ID/g
COc1cccc(OC[C@@H]2CN(CCN3CCc4ccccc43)CCO2)c1,HTR3A,radioligand binding,,"concentration not given, with: [3H]GR65630",,inhibition,12.2%
OCCCN1CC[C@@H]2C[C@H]1c1cc(-c3ccc(C(F)(F)F)cc3)ccc12,ADRB3,"radioligand binding, PDSP competition binding",,10 µM,,inhibition,< 50%
CC[C@@H]1[C@H](F)C(=O)N[C@@H]1COc1nccc2cc(C(N)=O)c(OC)cc12,"MAP2K6 (Homo sapiens, UniProt P52564)","ATP-site probe binding, ActivX profiling",THP-1 cell lysate,"0.2 mM, Lys2 site",,inhibition,12.8%
C=CC1=C(C)C2=Cc3c(C=C)c(C)c4[n]3[Sn]([Cl])([Cl])[n]3c(c(C)c(CCC(=O)O)c3=CC3=NC(=C4)C(C)=C3CCC(=O)O)=CC1=N2,"Trypanothione synthetase (Trypanosoma brucei brucei, UniProt Q586P2)","enzyme activity, BIOMOL Green phosphate release",,25 µM,,inhibition,13.8 ± 11.2%
Clc1cccc(OC[C@H]2CN(CCN3CCc4ccccc43)CCO2)c1,HTR3A,radioligand binding,,"concentration not given, with: [3H]GR65630",,inhibition,-3.7%
COc1cc(C(=O)NS(=O)(=O)c2ccccc2C)ccc1Cc1cn(C)c2ccc(NC(=O)OC3CCCC3)cc12,"Volume-regulated anion channel subunit LRRC8C, part LRRC8A IL1 chimera (LRRC8C, Homo sapiens, UniProt Q8TDW0, L136K)","ion current, inhibitor, whole-cell patch clamp",HCT LRRC8-/- cells,"0.03 µM, +100 mV",,inhibition,28.9% and 30.1% and 29.6% and 38.8%
CCN(CC)c1ccc(C2=NNC(=O)CC2C)cc1[N+](=O)[O-] (stereo not shown),"PDE5A (Homo sapiens, UniProt O76074)","enzyme activity, Caliper",,0.1 µM,,inhibition,16%
CN(C(=O)n1cnc(-c2ccc[n+]([O-])c2)c1)C1CCCCC1,"SLC29A1 (Homo sapiens, UniProt Q99808)",,,concentration not given,,inhibition,9.73%
Cc1cc2c(cc1N1C(=O)c3cccc4c(CCCO)ccc(c34)C1=O)n(C)c(=O)n2C (racemic),"ATAD2 (Homo sapiens, UniProt Q6PL18)","binding, BROMOscan binding",,1000 nM,,inhibition,87%
O=C(Nc1cccc2c(=O)cc(-c3nnn[nH]3)oc12)c1ccc(OCCCCc2ccccc2)cc1,"Volume-regulated anion channel subunit LRRC8C, part LRRC8A IL1 chimera (LRRC8C, Homo sapiens, UniProt Q8TDW0, Y126F)","ion current, inhibitor, whole-cell patch clamp",HCT LRRC8-/- cells,"0.3 µM, -100 mV",,inhibition,29.1% and 29% and 24.7% and 28.2% and 9.86%
O=C(CN1CCO[C@H](COc2cccc(Cl)c2)C1)N1CCc2ccccc21,HTR3A,radioligand binding,,"concentration not given, with: [3H]GR65630",,inhibition,8.3%
Cn1cc(-c2ccc(-c3cncc(Cl)c3N3CCC4(CCNC4=O)CC3)cc2)cn1,COLO 205,"gene expression, microarray, refers to: IFI6 mRNA",,"concentration not given, 2 h",reference: untreated cells,log2 fold change,1.56
Cc1nn(-c2nc3ccccc3[nH]2)c(O)c1C(c1ccccc1C(=O)O)c1c(C)nn(-c2nc3ccccc3[nH]2)c1O,CGAS catalytic domain; with DNA,"liquid-liquid phase separation, inhibitor",,1.25 µM,,inhibition,86.4%
CN(c1ncccc1CNc1nc(Nc2ccc3c(c2)CC(=O)N3)ncc1C(F)(F)F)S(C)(=O)=O,JNK (human),kinase activity,,1 µM,,inhibition,7.8%
C[C@@H]1CCO[C@H]2Cn3cc(C(=O)NCc4ccc(F)cc4F)c(=O)c(O)c3C(=O)N12,"SLC22A3 (Homo sapiens, UniProt O75751)",transport,"MDCK-II, transfected","0.5 µM, with: MPP+ 2 µM",,inhibition,11.6%
CCN1CCN(Cc2ccc(NC(=O)c3ccc(C)c(Oc4ccnc5[nH]ccc45)c3)cc2C(F)(F)F)CC1,"PIP4K2C (Homo sapiens, UniProt Q8TBX8)",,A-375,concentration not given,,inhibition,-13.3%
c1ccc(OC[C@@H]2CN(CCN3CCc4ccccc43)CCO2)cc1,HTR3A,radioligand binding,,"concentration not given, with: [3H]GR65630",,inhibition,8.4%
CCc1nn(C)c2nc(-c3ccc(C(=O)O)cc3)nc(NCc3ccc(F)cc3)c12,"PDE4D (Homo sapiens, UniProt Q08499)",inhibitor,,"10 µM, mean of replicates, with: [3H]cAMP",reference: control,inhibition,42%

# Repeated from above:
SMILES,target or system,test,test system,conditions,scale,endpoint,value
OO,"Histone acetyltransferase GCN5, with Ada2 and Ada3 (Saccharomyces cerevisiae S288c, UniProt Q03330)","enzyme activity, inhibitor",,"62.5 µM, Gcn5-Ada2-Ada3 complex, 1 mM DTT, with: [3H]acetyl-CoA",,inhibition,17 ± 10%
Cc1ccnc(OC[C@H]2CN(CC(=O)N3CCc4ccccc43)CCO2)c1,HTR3A,radioligand binding,,"concentration not given, with: [3H]GR65630",,inhibition,-10.9%
O=C(NO)c1ccc(CN2CCCCc3ccccc32)c(F)c1,ADRB3,"radioligand binding, radioligand displacement",,"10 µM, mean of replicates",,inhibition,5.33%
O=C(CN1CCO[C@@H](COc2ccccn2)C1)N1CCc2ccccc21,HTR3A,radioligand binding,,"concentration not given, with: [3H]GR65630",,inhibition,-7%
